Assay results pooled from the literature.
Protocols differ between the studies behind these lines. “And” joins repeats or separate records; there may be more than shown. Numbers after ± are the reported error.
Chain of UniProt P07202 (whole entry, looked up): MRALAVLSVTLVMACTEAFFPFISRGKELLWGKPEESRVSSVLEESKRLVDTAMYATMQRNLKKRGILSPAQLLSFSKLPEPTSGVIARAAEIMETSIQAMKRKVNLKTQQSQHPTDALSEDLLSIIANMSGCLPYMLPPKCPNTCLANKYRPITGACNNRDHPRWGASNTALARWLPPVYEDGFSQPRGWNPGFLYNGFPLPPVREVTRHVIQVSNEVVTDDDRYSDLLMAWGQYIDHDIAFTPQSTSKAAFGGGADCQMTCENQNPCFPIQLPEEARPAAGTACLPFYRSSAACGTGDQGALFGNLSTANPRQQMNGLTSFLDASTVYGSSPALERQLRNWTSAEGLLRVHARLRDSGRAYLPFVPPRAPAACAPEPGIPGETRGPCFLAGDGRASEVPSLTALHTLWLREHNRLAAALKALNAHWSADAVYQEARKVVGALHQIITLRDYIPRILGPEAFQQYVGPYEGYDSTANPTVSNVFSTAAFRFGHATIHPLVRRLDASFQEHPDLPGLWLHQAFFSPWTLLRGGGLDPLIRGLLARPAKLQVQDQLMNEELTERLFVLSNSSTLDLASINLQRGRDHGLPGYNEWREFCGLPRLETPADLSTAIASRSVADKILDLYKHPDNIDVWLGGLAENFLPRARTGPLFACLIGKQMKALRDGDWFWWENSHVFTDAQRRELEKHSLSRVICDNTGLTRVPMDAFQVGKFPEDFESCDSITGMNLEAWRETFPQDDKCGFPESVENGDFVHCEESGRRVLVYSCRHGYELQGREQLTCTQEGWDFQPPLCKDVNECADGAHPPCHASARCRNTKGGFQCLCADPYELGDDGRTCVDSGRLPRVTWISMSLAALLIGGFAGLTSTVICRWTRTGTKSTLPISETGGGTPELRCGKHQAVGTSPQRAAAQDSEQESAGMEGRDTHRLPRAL
Chain of UniProt P41240 (whole entry, looked up): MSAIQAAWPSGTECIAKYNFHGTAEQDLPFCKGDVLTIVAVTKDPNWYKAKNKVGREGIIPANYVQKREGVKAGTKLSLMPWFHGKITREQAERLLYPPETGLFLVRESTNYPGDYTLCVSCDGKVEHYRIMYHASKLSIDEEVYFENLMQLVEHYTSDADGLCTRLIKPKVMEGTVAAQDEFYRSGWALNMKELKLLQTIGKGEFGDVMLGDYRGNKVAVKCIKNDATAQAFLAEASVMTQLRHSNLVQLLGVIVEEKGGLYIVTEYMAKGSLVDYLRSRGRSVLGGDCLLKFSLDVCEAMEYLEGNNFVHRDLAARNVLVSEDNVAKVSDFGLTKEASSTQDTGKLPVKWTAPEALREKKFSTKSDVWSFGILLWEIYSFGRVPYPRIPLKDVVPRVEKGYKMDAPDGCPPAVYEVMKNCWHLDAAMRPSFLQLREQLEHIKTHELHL
Chain of UniProt Q9Y4K4 (whole entry, looked up): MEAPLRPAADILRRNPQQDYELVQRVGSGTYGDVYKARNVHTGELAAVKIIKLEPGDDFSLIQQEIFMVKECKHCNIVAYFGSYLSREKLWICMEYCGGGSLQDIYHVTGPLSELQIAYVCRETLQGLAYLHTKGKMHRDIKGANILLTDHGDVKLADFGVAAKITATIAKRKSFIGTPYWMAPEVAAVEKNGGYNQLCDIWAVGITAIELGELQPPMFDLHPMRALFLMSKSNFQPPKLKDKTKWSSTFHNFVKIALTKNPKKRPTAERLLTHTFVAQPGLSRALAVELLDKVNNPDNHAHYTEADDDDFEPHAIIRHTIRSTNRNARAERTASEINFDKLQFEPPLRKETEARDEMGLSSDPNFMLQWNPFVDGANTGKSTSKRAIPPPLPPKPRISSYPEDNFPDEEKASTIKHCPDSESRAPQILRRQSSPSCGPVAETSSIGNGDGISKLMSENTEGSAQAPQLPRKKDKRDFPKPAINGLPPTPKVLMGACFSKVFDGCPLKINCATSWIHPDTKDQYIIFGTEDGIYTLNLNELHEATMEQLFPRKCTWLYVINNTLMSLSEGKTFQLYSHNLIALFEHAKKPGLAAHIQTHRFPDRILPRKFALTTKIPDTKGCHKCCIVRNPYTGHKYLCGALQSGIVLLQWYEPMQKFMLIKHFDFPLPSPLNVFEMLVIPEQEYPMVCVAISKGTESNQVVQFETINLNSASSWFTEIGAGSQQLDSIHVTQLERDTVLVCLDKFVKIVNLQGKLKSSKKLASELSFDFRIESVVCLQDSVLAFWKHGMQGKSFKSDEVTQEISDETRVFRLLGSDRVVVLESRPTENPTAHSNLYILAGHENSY
Chain of UniProt P51955 (whole entry, looked up): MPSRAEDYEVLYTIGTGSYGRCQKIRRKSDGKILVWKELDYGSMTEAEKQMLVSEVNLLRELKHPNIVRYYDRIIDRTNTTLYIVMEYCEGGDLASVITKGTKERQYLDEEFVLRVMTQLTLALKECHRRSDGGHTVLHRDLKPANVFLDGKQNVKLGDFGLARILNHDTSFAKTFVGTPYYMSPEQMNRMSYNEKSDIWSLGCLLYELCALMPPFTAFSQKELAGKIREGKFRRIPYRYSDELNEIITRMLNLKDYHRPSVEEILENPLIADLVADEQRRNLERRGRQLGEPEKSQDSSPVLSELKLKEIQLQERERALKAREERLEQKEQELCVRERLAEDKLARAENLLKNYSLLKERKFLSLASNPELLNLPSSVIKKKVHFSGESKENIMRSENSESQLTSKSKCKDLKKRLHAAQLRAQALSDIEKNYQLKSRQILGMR
Chain of UniProt Q9Y2K6 (whole entry, looked up): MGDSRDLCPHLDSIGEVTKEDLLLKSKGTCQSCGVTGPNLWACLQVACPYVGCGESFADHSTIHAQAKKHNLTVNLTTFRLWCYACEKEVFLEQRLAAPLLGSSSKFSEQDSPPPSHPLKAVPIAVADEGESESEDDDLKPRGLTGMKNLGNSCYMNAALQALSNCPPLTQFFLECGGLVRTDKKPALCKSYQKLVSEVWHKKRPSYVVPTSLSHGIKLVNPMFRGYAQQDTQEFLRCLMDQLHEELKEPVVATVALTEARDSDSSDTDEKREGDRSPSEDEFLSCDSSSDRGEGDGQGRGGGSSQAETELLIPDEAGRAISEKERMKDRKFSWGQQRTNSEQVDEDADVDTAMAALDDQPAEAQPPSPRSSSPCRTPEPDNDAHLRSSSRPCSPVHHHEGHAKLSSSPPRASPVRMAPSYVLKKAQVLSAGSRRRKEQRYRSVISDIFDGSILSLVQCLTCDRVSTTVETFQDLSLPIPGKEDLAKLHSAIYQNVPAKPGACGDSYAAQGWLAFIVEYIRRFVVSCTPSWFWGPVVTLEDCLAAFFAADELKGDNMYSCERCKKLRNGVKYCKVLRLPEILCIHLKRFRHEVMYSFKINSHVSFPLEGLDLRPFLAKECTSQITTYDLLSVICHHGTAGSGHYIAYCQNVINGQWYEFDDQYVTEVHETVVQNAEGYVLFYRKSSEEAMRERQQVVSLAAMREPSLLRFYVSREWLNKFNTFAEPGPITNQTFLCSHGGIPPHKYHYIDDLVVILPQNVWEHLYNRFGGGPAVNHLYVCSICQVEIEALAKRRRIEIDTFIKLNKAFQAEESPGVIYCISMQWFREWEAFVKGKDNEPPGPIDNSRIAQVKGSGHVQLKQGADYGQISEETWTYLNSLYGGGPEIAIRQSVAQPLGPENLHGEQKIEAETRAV
Chain of UniProt P17948 (whole entry, looked up): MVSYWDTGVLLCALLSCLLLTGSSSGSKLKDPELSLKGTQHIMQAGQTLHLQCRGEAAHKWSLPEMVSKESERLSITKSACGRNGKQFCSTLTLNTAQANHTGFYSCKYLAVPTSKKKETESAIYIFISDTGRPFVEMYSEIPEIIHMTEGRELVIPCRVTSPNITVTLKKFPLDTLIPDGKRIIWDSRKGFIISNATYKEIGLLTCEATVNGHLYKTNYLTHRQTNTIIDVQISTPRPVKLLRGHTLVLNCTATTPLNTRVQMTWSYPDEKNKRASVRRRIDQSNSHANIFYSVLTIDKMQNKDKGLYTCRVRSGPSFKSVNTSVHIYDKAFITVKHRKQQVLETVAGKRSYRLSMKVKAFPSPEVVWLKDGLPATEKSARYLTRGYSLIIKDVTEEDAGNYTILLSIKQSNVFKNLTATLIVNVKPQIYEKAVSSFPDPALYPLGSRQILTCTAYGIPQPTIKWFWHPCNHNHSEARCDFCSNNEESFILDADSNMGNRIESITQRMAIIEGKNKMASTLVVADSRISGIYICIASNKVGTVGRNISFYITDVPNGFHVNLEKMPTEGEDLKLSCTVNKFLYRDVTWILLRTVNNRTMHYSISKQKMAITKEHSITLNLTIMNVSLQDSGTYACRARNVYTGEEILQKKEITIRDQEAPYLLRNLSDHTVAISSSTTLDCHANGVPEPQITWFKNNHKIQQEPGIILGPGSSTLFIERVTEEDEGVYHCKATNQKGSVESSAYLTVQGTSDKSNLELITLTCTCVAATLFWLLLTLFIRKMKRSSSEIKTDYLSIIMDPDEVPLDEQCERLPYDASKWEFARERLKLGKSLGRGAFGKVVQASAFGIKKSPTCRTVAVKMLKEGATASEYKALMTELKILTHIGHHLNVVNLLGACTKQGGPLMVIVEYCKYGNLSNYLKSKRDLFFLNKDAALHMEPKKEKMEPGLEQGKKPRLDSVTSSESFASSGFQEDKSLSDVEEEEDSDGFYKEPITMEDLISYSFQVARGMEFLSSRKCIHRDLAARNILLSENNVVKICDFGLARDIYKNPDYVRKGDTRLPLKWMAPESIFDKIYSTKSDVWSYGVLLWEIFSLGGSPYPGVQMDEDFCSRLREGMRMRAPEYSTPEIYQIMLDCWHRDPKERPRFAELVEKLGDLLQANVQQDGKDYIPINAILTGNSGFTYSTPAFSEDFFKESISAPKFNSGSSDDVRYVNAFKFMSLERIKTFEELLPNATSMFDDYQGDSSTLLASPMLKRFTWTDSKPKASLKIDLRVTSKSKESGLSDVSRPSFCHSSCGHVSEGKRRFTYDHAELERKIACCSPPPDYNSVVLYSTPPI

O=C(O)c1ccc(Nc2ncc3c(n2)-c2ccc(Cl)cc2C(c2c(F)cccc2F)=NC3)cc1  remaining activity (human Tie2(h); kinase activity; 1 µM): 51%
CC(C)(C)C(=O)c1sc(NC2CCCCC2)nc1N  remaining activity (AMP-activated protein kinase; enzyme activity, inhibitor; 10 µM): 101%
CNc1ncc2c(/C=C/C(=O)N3CCC(OC)CC3)nn(Cc3cccc(C(F)(F)F)c3)c2n1  remaining activity (NLK (Homo sapiens, UniProt Q9UBE8); kinase activity, inhibitor; 1 µM; reference: untreated control): 89%
Nc1ncc2c(n1)-c1c([nH]c3ccc(-c4ccc(F)cc4)cc13)CCC2  remaining activity (MAP4K5 (Homo sapiens, UniProt Q9Y4K4); kinase activity, inhibitor, radiometric; 1 µM, together with: ATP at Km): 47%
Cc1cc(Nc2cc(N3CCN(C)CC3)nc(Sc3ccc(NC(=O)C4CC4)cc3)n2)[nH]n1  remaining activity (CSF1R (Homo sapiens, UniProt P07333); kinase activity, KinaseProfiler; 0.03 µM, species human; reference: control): 87%
CNCC(=O)O  remaining activity (Sodium- and chloride-dependent glycine transporter 2 (Homo sapiens, UniProt Q9Y345, S479G); glycine uptake, inhibitor, [3H]glycine uptake; 2000 µM, S479G mutant, log concentration 2, together with: [3H]glycine; reference: no inhibitor): 44.4%
COc1ccc(F)cc1C(=O)NCc1ccc(-c2nn([C@@H](C)C(F)(F)F)c(N)c2C(N)=O)cc1  remaining activity (CSK (Homo sapiens, UniProt P41240); kinase activity, inhibitor, HotSpot radiometric; 1000 nM, together with: ATP at Km): 34.3 ± 0.5%
C=CC(=O)N1CCC[C@@H](n2nc(-c3ccc(Oc4ccccc4)cc3)c3c(N)ncnc32)C1  remaining activity (FLT1 (Homo sapiens, UniProt P17948); 10 µM): 52.1%
COc1cc(Nc2ncc3c(n2)-c2ccc(Cl)cc2C(c2c(F)cccc2OC)=NC3)ccc1C(=O)O  remaining activity (Aurora B kinase (AURKB); enzyme activity; 1 µM): 0%
CSc1nc(C)c(CCC(=O)O)c(=O)[nH]1  Kd (Ubiquitin carboxyl-terminal hydrolase 20, ZnF-UBD domain (USP20, Homo sapiens, UniProt Q9Y2K6)): 814 µM
COc1cc(-c2cncc3c2CN(C)Cc2cc(N4CCNCC4)ccc2-3)cc(OC)c1OC  remaining activity (Phosphatidylinositol 4,5-bisphosphate 3-kinase catalytic subunit alpha isoform, with p85 alpha (Pik3ca, Mus musculus, UniProt P42337, E545K); kinase activity; 1 µM, p110a(E545K)/p85a)(m mouse, together with: ATP 10 µM; reference: DMSO): 108%
O=C(NC1CCC1)c1ccc2nc(-c3cccc(NS(=O)(=O)NCCN4CCCCC4)c3)cn2c1  remaining activity (KIT (Homo sapiens, UniProt P10721, L576P); enzyme activity; 10 µM): 100%
C=CC(=O)N1CCC[C@@H](n2nc(-c3ccc(Oc4ccccc4)cc3)c3c(N)ncnc32)C1  remaining activity (GRK6 (Homo sapiens, UniProt P43250); kinase activity, inhibitor, HotSpot radiometric; 100 nM, together with: ATP 10 µM): 95.3 ± 1%
c1cnc2ccc(Nc3nc(NC4CC4)c4nc[nH]c4n3)cc2c1  remaining activity (PI4KA (Homo sapiens, UniProt P42356); kinase activity, inhibitor, SelectScreen kinase profiling; 1 µM; reference: control): 94%
NC/C(=C\F)COc1cccc(Cn2c(=S)[nH]c(=O)c3[nH]cnc32)c1  remaining activity (Thyroid peroxidase (Homo sapiens, UniProt P07202); ascorbate oxidation; 1.875 µM; reference: control): 31% and 102% and 71.4%
COc1cc(F)ccc1-c1ncnc(Nc2cccc(C[S@](C)(=N)=O)c2)n1  remaining activity (NEK2 (Homo sapiens, UniProt P51955); kinase activity; 10 µM, together with: 10 µM ATP): 84%
O=C(O)CCc1ccc2c(c1)OCO2  Kd (Ubiquitin carboxyl-terminal hydrolase 49, ZnF-UBD domain (USP49, Homo sapiens, UniProt Q70CQ1)): > 1000 µM
CCOc1cc(N2CCN(C)CC2)ccc1Nc1nc(N)n(C(=O)NCc2ccccc2S(=O)(=O)C(C)C)n1  remaining activity (EPHB6 (Homo sapiens, UniProt O15197); enzyme activity; 10 µM; reference: control): 1.8%

For quick reference, copied from above:
O=C(O)CCc1ccc2c(c1)OCO2  Kd (Ubiquitin carboxyl-terminal hydrolase 49, ZnF-UBD domain (USP49, Homo sapiens, UniProt Q70CQ1)): > 1000 µM
